Published values of several laboratories.
Each line is one published result; not all experiments were run side by side. ± marks the error that the study gave.
B1: Xrs2 1-325 (Saccharomyces cerevisiae, UniProt P33301); chain MWVVRYQNTLEDGSISFISCCLQAFKTYSIGRSSKNPLIIKNDKSISRQHITFKWEINNSSDLKHSSLCLVNKGKLTSLNKKFMKVGETFTINASDVLKSTIIELGTTPIRIEFEWINEVWNIPPHLTQFRTMLSEYGISTEISINDIPANLMISDYPKSEDNSIRELYALVSTIPMKKSRFLMELCNTLLPTSKTNLKFDEMWNDMISNPEYNVFDFDPNILLSKFMRLNNIRVLTTIKSEPRLSSLLRTFNINLFAFDNIDSLYKYVDSLEASTEYLILTTTDKKENGKILCTIKTMLTSIIDGTLSAVINMKGASSRTLDNG
B2: CFH domains 1108-1231 R1182S (Homo sapiens, UniProt P08603); sequence looked up; chain KCGPPPPIDNGDITSFPLSVYAPASSVEYQCQNLYQLEGNKRITCRNGQWSEPPKCLHPCVISREIMENYNIALSWTAKQKLYSRTGESVEFVCKRGYRLSSRSHTLRTTCWDGKLEYPTCAKR
B3: PUX5 301-421 M393A/F395A (Arabidopsis thaliana, UniProt Q7Y175); chain KNPFQGVGRTLGASGSGSSSAPQASSAPMNVAPAPSRGLVVDPAAPTTSIQLRLADGTRLVSRFNNHHTVRDVRGFIDASRPGGSKEYQLLTAGAPPKQLTELDQTIEQAGIANAVVIQKF
B4: Cacna1c 1647-1777 (Mus musculus, UniProt Q01815); sequence looked up; chain NALSLQAGLRTLHDIGPEIRRAISGDLTAEEELDKAMKEAVSAASEDDIFRRAGGLFGNHVTYYQSDSRGNFPQTFATQRPLHINKTGNNQADTESPSHEKLVDSTFTPSSYSSTGSNANINNANNTALGR
B5: MMP2 110-660 (Homo sapiens, UniProt P08253); sequence looked up; chain YNFFPRKPKWDKNQITYRIIGYTPDLDPETVDDAFARAFQVWSDVTPLRFSRIHDGEADIMINFGRWEHGDGYPFDGKDGLLAHAFAPGTGVGGDSHFDDDELWTLGEGQVVRVKYGNADGEYCKFPFLFNGKEYNSCTDTGRSDGFLWCSTTYNFEKDGKYGFCPHEALFTMGGNAEGQPCKFPFRFQGTSYDSCTTEGRTDGYRWCGTTEDYDRDKKYGFCPETAMSTVGGNSEGAPCVFPFTFLGNKYESCTSAGRSDGKMWCATTANYDDDRKWGFCPDQGYSLFLVAAHEFGHAMGLEHSQDPGALMAPIYTYTKNFRLSQDDIKGIQELYGASPDIDLGTGPTPTLGPVTPEICKQDIVFDGIAQIRGEIFFFKDRFIWRTVTPRDKPMGPLLVATFWPELPEKIDAVYEAPQEEKAVFFAGNEYWIYSASTLERGYPKPLTSLGLPPDVQRVDAAFNWSKNKKTYIFAGDKFWRYNEVKKKMDPGFPKLIADAWNAIPDNLDAVVDLQGGGHSYFFKGAYYLKLENQSLKSVKFGSIKSDWLGC
B6: MDM4 23-260 (Homo sapiens, UniProt O15151); chain GPLGSQINQVRPKLPLLKILHAAGAQGEMFTVKEVMHYLGQYIMVKQLYDQQEQHMVYCGGDLLGELLGRQSFSVKDPSPLYDMLRKNLVTLATATTDAAQTLALAQDHSMDIPSQDQLKQSAEESSTSRKRTTEDDIPTLPTSEHKCIHSREDEDLIENLAQDETSRLDLGFEEWDVAGLPWWFLGNLRSNYTPRSNGSTDLQTNQDVGTAIVSDTTDDLWFLNESVSEQLGVGIKVEAADT
Sequence of UniProt P54609 (whole entry, looked up): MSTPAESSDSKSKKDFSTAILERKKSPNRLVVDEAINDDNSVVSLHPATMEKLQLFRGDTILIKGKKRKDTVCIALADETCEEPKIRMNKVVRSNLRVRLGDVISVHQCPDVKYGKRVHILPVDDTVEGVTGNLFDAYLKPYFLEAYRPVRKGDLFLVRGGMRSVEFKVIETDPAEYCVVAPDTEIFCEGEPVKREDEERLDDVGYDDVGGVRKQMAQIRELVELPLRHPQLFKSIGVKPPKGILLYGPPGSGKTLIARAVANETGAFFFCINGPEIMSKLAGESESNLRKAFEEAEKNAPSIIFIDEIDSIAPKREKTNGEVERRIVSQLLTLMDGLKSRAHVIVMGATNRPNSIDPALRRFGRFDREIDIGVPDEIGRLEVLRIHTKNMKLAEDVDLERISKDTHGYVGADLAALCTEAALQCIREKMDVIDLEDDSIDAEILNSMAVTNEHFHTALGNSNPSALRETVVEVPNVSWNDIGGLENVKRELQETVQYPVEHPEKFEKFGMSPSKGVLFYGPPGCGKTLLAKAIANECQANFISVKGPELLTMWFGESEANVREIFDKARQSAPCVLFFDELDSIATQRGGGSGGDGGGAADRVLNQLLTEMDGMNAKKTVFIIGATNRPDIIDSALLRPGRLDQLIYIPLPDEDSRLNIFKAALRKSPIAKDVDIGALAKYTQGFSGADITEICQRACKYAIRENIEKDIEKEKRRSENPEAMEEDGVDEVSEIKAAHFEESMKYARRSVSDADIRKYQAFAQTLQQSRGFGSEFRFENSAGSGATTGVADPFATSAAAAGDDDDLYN
Sequence of UniProt Q9ULM3 (whole entry, looked up): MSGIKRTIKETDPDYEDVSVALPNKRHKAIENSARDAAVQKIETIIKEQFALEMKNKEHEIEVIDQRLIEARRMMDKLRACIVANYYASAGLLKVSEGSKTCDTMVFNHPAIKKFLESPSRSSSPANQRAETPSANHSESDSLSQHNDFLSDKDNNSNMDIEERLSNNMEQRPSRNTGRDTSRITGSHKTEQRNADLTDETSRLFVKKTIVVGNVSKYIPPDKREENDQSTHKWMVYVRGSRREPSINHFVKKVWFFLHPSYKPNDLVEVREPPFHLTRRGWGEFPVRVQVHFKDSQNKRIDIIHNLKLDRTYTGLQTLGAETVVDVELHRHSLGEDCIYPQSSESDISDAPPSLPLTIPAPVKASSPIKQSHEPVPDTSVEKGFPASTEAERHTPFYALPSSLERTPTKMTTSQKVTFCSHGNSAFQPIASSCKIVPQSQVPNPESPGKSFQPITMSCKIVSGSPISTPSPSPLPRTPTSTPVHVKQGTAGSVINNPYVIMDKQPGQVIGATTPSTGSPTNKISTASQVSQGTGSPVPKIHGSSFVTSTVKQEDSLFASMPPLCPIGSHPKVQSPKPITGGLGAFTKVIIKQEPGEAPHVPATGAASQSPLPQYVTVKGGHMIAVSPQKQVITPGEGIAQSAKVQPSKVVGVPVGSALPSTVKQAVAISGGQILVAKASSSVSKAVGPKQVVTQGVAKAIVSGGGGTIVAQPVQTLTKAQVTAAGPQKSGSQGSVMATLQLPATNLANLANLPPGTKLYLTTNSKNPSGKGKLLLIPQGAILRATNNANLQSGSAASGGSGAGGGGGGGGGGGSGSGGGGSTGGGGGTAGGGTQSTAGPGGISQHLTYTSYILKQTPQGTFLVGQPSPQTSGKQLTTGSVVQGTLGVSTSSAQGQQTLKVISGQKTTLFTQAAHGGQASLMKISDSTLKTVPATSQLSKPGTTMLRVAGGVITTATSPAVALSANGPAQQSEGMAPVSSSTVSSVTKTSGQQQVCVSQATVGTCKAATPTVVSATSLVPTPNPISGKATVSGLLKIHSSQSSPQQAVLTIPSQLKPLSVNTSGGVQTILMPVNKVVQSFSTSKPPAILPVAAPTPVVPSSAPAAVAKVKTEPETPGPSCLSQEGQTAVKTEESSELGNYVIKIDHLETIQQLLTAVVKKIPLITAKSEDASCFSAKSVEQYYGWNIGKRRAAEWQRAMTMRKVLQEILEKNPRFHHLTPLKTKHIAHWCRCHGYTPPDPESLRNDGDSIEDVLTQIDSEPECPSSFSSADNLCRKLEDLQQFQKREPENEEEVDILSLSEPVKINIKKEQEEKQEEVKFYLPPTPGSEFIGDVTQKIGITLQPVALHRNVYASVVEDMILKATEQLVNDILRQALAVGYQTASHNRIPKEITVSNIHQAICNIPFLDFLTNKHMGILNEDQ
Sequence of UniProt Q96HE7 (whole entry, looked up): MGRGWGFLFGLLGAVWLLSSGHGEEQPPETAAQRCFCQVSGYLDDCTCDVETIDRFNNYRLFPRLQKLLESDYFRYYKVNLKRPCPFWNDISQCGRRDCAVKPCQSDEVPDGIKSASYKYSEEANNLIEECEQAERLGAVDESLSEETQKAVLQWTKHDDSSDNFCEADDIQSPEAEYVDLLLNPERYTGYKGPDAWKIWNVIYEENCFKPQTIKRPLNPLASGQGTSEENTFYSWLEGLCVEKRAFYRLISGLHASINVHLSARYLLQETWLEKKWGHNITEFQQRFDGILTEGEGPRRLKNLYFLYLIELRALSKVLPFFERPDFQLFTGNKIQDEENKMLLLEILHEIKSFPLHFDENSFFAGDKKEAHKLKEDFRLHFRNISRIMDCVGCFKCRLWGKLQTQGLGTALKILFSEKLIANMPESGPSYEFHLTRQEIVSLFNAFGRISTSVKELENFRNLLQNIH
Sequence of UniProt P01024 (whole entry, looked up): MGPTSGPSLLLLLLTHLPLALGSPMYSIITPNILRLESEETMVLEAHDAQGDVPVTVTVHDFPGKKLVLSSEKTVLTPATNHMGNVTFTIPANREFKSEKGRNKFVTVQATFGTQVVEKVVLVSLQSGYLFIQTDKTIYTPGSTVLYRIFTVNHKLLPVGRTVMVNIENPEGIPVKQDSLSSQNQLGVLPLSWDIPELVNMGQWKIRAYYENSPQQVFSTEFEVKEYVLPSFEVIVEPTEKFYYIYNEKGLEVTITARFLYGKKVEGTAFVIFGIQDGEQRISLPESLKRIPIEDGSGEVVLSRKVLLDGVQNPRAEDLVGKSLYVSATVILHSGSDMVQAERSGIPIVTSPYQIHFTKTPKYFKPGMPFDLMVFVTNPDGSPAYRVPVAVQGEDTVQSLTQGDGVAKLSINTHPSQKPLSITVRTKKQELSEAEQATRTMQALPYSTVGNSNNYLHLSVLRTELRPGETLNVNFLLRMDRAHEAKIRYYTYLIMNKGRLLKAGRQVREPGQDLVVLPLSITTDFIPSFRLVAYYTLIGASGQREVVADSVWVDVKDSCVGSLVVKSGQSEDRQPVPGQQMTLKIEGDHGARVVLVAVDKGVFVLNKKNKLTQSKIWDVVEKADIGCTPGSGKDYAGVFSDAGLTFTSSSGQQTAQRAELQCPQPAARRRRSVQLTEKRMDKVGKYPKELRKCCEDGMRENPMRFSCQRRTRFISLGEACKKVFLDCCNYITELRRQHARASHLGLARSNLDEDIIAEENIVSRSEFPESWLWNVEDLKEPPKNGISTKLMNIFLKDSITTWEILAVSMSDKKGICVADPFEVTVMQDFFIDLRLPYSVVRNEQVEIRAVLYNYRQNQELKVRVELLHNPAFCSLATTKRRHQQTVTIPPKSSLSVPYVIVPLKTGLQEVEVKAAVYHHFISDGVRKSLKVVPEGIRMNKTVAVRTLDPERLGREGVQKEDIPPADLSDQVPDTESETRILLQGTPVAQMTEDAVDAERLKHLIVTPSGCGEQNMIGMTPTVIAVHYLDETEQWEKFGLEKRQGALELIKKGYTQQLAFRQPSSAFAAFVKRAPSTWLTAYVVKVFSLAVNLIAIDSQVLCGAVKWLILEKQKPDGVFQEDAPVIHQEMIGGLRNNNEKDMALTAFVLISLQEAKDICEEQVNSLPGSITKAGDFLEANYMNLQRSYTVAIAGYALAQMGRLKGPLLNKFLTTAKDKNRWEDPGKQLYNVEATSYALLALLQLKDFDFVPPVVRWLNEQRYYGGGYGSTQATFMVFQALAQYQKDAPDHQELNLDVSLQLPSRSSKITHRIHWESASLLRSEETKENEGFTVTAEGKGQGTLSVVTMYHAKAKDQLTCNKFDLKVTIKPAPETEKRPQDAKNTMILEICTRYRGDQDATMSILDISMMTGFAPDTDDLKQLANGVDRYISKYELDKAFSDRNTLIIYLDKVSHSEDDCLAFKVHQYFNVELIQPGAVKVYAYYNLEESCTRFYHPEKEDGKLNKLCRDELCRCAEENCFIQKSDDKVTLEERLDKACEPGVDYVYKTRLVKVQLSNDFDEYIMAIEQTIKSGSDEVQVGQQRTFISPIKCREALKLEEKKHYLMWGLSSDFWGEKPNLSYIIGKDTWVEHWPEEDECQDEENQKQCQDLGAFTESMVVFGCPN
Sequence of UniProt Q13586 (whole entry, looked up): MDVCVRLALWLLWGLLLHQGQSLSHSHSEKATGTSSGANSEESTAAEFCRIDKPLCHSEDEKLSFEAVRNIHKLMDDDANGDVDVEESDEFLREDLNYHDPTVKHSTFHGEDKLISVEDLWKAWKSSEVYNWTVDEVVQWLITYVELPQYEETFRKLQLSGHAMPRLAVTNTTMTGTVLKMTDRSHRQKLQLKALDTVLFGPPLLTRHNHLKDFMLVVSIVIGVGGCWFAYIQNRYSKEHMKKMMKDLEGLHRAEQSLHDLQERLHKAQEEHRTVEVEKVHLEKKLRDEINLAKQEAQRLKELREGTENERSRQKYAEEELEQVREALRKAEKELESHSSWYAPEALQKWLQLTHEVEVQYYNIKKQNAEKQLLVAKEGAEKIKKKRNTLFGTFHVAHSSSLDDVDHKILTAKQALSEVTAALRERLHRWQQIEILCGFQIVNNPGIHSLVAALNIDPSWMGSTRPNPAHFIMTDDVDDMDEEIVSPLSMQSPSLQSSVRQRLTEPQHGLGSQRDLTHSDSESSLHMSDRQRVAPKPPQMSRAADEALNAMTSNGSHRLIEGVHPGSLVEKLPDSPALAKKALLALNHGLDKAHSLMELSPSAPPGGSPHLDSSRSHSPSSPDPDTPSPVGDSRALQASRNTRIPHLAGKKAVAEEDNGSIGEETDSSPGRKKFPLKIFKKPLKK

`MQLMPFGCLL` has a binding score of 0.3% (HLA class I histocompatibility antigen, A alpha chain, allele A*01:01 (Homo sapiens, UniProt P04439); conformational ELISA; peptide; concentration not given; baseline: positive control peptide, direction not given).
For `B1 (Xrs2 1-325)`, the Kd was 2.3 µM (Sae2 phosphopeptide, pT5, N-terminal FAM (Saccharomyces cerevisiae); fluorescence polarization).
`STIM1 (UniProt Q13586)` gave a Kd of 2.6 µM (ERO1A (Homo sapiens, UniProt Q96HE7); BLI).
`Histone H3.1 fragment (Homo sapiens)` has a Kd of over 1000 µM (YEATS2 200-349 (Homo sapiens, UniProt Q9ULM3); ITC).
For `B2 (CFH domains 1108-1231 R1182S)`, the Kd was 13.8 ± 0.4 µM (C3 996-1303 (Homo sapiens, UniProt P01024); SPR).
`QSARYRDTEL` has a binding intensity of 0.0402 (human MAGI1-2/6 PDZ construct (MBP fusion); automated holdup; peptide, purified PDZ protein; concentration not given, unit not given; baseline: biotin control resin, higher = stronger binding).
`B3 (PUX5 301-421 M393A/F395A)` gave a Kd of 4 ± 0.3 µM (CDC48A 1-463 (Arabidopsis thaliana, UniProt P54609); ITC; 25 °C).
For `B4 (Cacna1c 1647-1777)`, the Kd was 6.82 µM (Jph2 1-440 S165N (Mus musculus, UniProt Q9ET78); ITC).
`GLLQWVSMV` gave a reporter activation of 0.24% (Jurkat T cells expressing 1G4 TCR; NFAT-eGFP reporter, flow cytometry; peptide; concentration not given, HLA-A*02:01 NY-ESO system).
`SCN2A fragment I1912A (Homo sapiens) (sequence not shown)` has a Kd of 19.6 µM (CALM1 (Homo sapiens, UniProt P0DP23); fluorescence titration; with: CaCl2).
With `B5 (MMP2 110-660)` the Kd was 0.0322 µM (TLR2 21-588 (UniProt O60603); SPR; 25 °C).
`B6 (MDM4 23-260)` has a Kd of 13.8 µM (TP53 1-312 (UniProt P04637); ITC).
`QGRWDHETIV` has a binding intensity of 0.283 (human MAGI1-2/6 PDZ construct (MBP fusion); automated holdup; peptide, crude extract; concentration not given, uncorrected, unit not given; baseline: biotin control resin, higher = stronger binding).
The Kd of `AAACAAACAAAC (dsDNA)` is reported as 3.07 ± 0.272 µM (Fibroin-modulator-binding protein-1 99-193 (Bombyx mori, UniProt Q5FBS0); ITC; double-stranded DNA, one strand shown).
`CNNM2 CBS-pair domain (Danio rerio)` gave a Kd of 0.014 µM (PTP4A3 1-169 (Homo sapiens, UniProt O75365); ITC; 20 °C).
The Kd of `GCVRLHESCLGQQVPCCDPAATCYCYGRGDNDLRCYCR (designed binder)` is reported as 0.0018 µM (ITGAV/ITGB3 U87MG cells (Homo sapiens); flow cytometry; designed binder, U87MG).
